Experimental data pooled from the literature.
Each numbered part is a random draw from the data of one study; scales do not carry over between parts. Positions count from the first letter of the parent shown.

Series 1
Target: CCNA2, cyclin fold, Cln2 fusion (human)
Technique: yeast growth competition, sequencing
Matrix: yeast
Notes: strong parent motif
Relative to: not given
Reading: higher = stronger binding
Endpoint: normalised enrichment score
Starting sequence: RBL1 docking peptide (human); GSAKRRLFGEDPP; partner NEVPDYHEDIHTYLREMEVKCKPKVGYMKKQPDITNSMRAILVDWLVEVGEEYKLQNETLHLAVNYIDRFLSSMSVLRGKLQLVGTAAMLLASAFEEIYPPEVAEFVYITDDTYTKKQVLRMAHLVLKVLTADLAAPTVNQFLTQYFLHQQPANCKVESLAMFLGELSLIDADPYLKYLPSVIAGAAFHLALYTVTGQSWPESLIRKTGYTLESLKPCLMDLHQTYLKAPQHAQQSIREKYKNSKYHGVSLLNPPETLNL
Change = GSAKRRLFGEDPC [P13C]; result = 5.54
Change = PSAKRRLFGEDPP [G1P]; result = 6.45
Change = GSAKRRLFGEDDP [P12D]; result = 5.38
Change = GSAKRRLFGMDPP [E10M]; result = 5.28
Change = GYAKRRLFGEDPP [S2Y]; result = 4.58
Change = GSWKRRLFGEDPP [A3W]; result = 2.98
Change = GSAKKRLLGEDPP [R5K F8L]; result = 0.571
Change = GSAKRRLFMEDPP [G9M]; result = 6.14
Change = GSAKRRLFGEDPN [P13N]; result = 6.37
Change = CSAKRRLFGEDPP [G1C]; result = 5.76
Change = GSAKRRLDGEDPP [F8D]; result = 0.752
Change = GSAKRRLHGEDPP [F8H]; result = 0.461
Change = GSAKRRLLGEDPP [F8L]; result = 1.37
Change = GSAKRILFGEDPP [R6I]; result = 2.83

Series 2
Target: Histone acetyltransferase KAT6A, winged helix 2, GST fusion (KAT6A, Homo sapiens, UniProt Q92794, residues 85-181)
Technique: protein binding microarray
Form: double-stranded DNA, one strand shown
Matrix: in vitro
Concentration: not given
Notes: 8-mer, flanks averaged, mean of 2 arrays, mostly near background
Relative to: not given
Reading: higher = stronger binding
Endpoint: E-score
Residues (chain): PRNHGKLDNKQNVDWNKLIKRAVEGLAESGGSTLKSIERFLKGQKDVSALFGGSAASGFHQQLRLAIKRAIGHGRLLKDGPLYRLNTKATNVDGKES
Sequence = AAAGATTT; result = 0.0859
Sequence = CACGCGTC; result = -0.063
Sequence = CTGCTACA; result = 0.165
Sequence = ACTCGAAA; result = 0.0824
Sequence = ATGCCCAG; result = 0.155
Sequence = ATGATGTC; result = -0.0186
Sequence = ACTTTTAT; result = -0.0586
Sequence = AATTAGCG; result = -0.131
Sequence = CGCGGCCG; result = 0.222
Sequence = ATGTCTAG; result = 0.111
Sequence = TATGAATA; result = -0.0321
Sequence = CTGGAGCC; result = 0.0161
Sequence = ATAAGGGA; result = -0.172
Sequence = CCCGCCCC; result = 0.31
Sequence = ATGTCTGG; result = -0.0533
Sequence = ACAGTTGC; result = -0.102
Sequence = AGCGTTGA; result = -0.0148
Sequence = CCCGCCGC; result = 0.28
Sequence = GGAAAAGA; result = -0.0517
Sequence = CTACAAGA; result = -0.000175
Sequence = AAACATCC; result = 0.0113
Sequence = CATCAATC; result = -0.133
Sequence = AGCACCCC; result = -0.0818
Sequence = ATTGTAAA; result = 0.0398
Sequence = TCATGTCA; result = -0.0842

Series 3
Target: RNA binding protein fox-1 homolog 2, RRM domain, GST-SBP tag (RBFOX2, Homo sapiens, UniProt O43251-10, residues 100-194)
Technique: RNA Bind-n-Seq
Form: RNA
Matrix: in vitro
Concentration: 365 nM
Notes: natural RNA segment, single round, ends assumed
Relative to: no-protein control
Reading: higher = stronger binding
Endpoint: RBNS enrichment (R)
Residues (chain): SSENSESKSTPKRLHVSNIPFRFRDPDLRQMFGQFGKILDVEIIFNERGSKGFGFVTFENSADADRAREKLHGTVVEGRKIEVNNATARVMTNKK
Sequence = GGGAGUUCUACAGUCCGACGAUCAUAGCAAAACAAGUGCAGUGUAUUAAAGCUAAACACUACAUUGAAACGCAAACAAAAUUCUGGUGAAAUAACUGGGCUGUUGAUGCAGGUCAGGUGGAAGCUGAGAAAUAUGGAAUUCUCGGGUGCCAA; result = 0.463
Sequence = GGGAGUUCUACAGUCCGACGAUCUGCCUCUGACACACUGCACACGUCUAGAGGCUGUAAUUGGAAAUAGGCUUUUGGUUUCCUGUGCCAUUCAAGUUUGGGGCUUUCAUUUGGUUACAGAGUUCAGCGCUUGGUGGAAUUCUCGGGUGCCAA; result = 1.98
Sequence = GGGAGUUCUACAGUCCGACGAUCGCUGUGGGAGAGACAAUUCAGUGGCAGCCCACUGGCUUCUCUACCCAUUCCACAGGAACCCUAUUCCUACCCCCACCCCUGCCCACAAAUGCCACUGUGAUCCACAGCUGUGGAAUUCUCGGGUGCCAA; result = 0.412
Sequence = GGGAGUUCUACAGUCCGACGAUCCAAAGCUGGUGUAGCCAUGCUGGUGAGAAAAAUCCUGUUCAACCUGGGUUCUCCCAGUUACGGAAACCUUUUAAAGAUCCACAUUAGCCUUUUAGAAUAAAGCUGCUACUUGGAAUUCUCGGGUGCCAA; result = 0.248
Sequence = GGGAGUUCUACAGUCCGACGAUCUGUCACCUUCUUGGACUUAUUCCCCACCUGAUACCUUAUAGAGAAAAGUGUGAAUUCAGGUGGAGAGUAGGCCCAGGCCCCAUGAGGCACCAGUGGAAGCACAGCUCCAAUGGAAUUCUCGGGUGCCAA; result = 0.202
Sequence = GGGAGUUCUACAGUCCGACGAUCUUCCCUGCCACCCGGGGUAAGGAGGUGGCACUACCAGUCUGUCUAACCCACUCACUGGCUUUGACCUUCAACUGCCAGUCUGGGCAAAUACCAGUGAGCUCUGUUGUACCUGGAAUUCUCGGGUGCCAA; result = 0.331
Sequence = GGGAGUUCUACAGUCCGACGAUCUCACUGCGCUCAAGGAAAAAGUCAGAUGGGUGACAAGGUGGUUCUGUUUAGAAGCAGCAGGCAAUGUAGUUAACAGCAUAGACUUCCGUGUCUUGUGUGUGGUACCUUGGUGGAAUUCUCGGGUGCCAA; result = 3.62
Sequence = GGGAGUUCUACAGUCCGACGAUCGAGGGAGUGUUGGUUUUUUGUUUUUGUUUUUUUAACAUGUAUGAAACUGACAUCUUCUCAAAUCUUGUUCCACCCCCCUCUGGAAGCCCCCAUCACCCACCCCUGCUAUGUGGAAUUCUCGGGUGCCAA; result = 0.701
Sequence = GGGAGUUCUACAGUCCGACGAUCAUACAUGAUCCCUCGGGUUUUGUUUACAAGGAACCUUGACUGACCAAAAGGCAUUAUAACUCUGACUCAAAUACAAGGUACAGAAGAUAAGCAUCUUUGAGGAAACUCCUUGGAAUUCUCGGGUGCCAA; result = 0.28
Sequence = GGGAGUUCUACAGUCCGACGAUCCCACCCCCUUCCCCUACUCUAGGGGAGAGAGCUGCUAGUGAGAUGACUGUUUUAUAAAGAAAUGGAAAAAAGUGAAAUAAAAAAUAUGUUGAAUCAGAUUUUUUAAAAGGUGGAAUUCUCGGGUGCCAA; result = 0.799
Sequence = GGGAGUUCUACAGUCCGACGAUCUAUCCCUGUCCCCAGGACCGAAACACAUAGCCUCAUUUCAAAGCGUAGCCAGGUUCCCUCUGCUUUCCUCUGGGAUAUGGAAAGGGGGCCAAGAGGACUUUGGAUCUCUCUGGAAUUCUCGGGUGCCAA; result = 0.255
Sequence = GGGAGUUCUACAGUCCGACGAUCUGUGUGAUCAGACCAUUGAAACCACUAAUUCUGUCCCCAGGAGACUUGGCUGUGUGUGUGAGUGGCUUACCCUUCCUCAUCUUCCCUUCCCAAGGCACAGAGCAAUGGGGUGGAAUUCUCGGGUGCCAA; result = 0.39

Series 4
Target: RING finger protein unkempt homolog, zinc fingers 1-6, SBP tag (UNK, Homo sapiens, UniProt Q9C0B0, residues 30-357)
UniProt Q9C0B0, sequence (30-357, looked up): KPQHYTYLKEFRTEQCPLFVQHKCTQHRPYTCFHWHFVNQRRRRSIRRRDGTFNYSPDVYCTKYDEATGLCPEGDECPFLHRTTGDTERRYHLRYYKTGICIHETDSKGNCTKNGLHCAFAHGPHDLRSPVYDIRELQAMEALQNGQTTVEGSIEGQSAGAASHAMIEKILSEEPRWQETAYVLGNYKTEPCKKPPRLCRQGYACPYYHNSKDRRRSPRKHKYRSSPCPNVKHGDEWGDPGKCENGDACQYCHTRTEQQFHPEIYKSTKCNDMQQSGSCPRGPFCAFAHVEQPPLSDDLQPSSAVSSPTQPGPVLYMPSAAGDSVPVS
Technique: RNA Bind-n-Seq
Form: RNA
Matrix: in vitro
Concentration: 100 nM
Notes: RNA with constant flanks, vertebrate orthologous sites, ends assumed
Relative to: input RNA pool
Reading: higher = stronger binding
Endpoint: bound/input enrichment
Sequence = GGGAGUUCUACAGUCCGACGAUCUGCUGUUAAUGCACUGUAUACCAGGCAUCGUCUGACCUUAGUGUAAUCUAGGAGAUUUUAUAGUUUUAUUUUAAUGAAGUCUGGAUUGAGGCAAAGCUGAUAGGAGUCCGUAGUCUUUUACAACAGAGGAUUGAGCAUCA; result = 2.69 ratio
Sequence = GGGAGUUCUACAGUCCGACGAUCAGCUUCUGAUGUUUGGGAAGUCUAUAUGAUUUAUAAUAUUUUUUGUUUGUAAUAUAAUUUCAUAAAAUUCUUGACAACUGAUGUGCUGACUUUUCUUAUGUUAGGAGGAGUAGGGUCAUACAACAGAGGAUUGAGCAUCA; result = 0.484 ratio
Sequence = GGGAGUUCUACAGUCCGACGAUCGGCUACAAUAAUGAAAACUUAAAGGAUUUCUUUUCAUUUUUAAUUUUCCCCUUAGGCAUAUUUAGGCAUUUUUUUUCCAGGCAGAUCAUUAAGAGUAUGUCUGUGUGUGUGCCCAUGUUACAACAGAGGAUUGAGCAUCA; result = 0.79 ratio
Sequence = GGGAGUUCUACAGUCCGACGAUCAUCUAUACACUUUUAAAGAUAACUUCCUUAUAAGAUGUUUUGGCUAGUCAUAUUUAAUCGUAUUUAUAUAUCUAUUUUUUAUAAUAGCAGUGUAGAUUCCAAGGGGCCUCCUUUCGGGUUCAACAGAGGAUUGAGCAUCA; result = 0.647 ratio
Sequence = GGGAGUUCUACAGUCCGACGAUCGUUAGGACAUGACCCUUAUCGGUUAGGUCAUGAUGCCUAUAGGUUAGGACAGGACCCGUAUAGAUUAGGCCAUGAUCCCUACAGACUAACUCCUGAUCCCUAUAGAAUGUCACCUAGACCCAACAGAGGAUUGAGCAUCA; result = 0.766 ratio
Sequence = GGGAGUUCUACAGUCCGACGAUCCGGUUGUAGGAAUGAAAACUUUCAUAGGGAUAACUGUCCAGAGUGAUCACUAGUUUGUACUAGCAGAGUCACUGUCACAUUUUAAUUGUCUGCUUUGUCUGCCACCCGAAACCAAUCAAACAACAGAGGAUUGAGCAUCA; result = 0.58 ratio
Sequence = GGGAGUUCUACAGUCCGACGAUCCUGAAGCUUUGUGUUUGGCUGCACCUGCAUAAGCUGCUACAAAUAGAAUAAAGAAUUUCAUAGCCUGUAUCUAUCAUUUAGAUGCAUGGAAAAAUGGGCUUUGCACACAAUGGGUUUGGACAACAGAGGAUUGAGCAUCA; result = 2.48 ratio
Sequence = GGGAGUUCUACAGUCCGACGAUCGAAGACGGCGACUGUACAUUAUCUCACUUAGAGAAUAUGAAAAUCAUUUUGUUUUGAAGCUAGGUAUUAAACUGGAGUAGCUAUUACGUUCUUGAAAACUGGGGCAGGUGUGCCCUUGACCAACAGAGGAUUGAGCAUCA; result = 1.46 ratio
Sequence = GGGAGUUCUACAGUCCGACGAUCCCAUUGUAUCCUGCUGUAUAAUAAGCAAUCUUAGCAUUUAUCAACUGUUGAUACAAAUGUUAGUCCCUAACCACUUUUUAUAUGUUUUAAAACUUUGAAAUUCAAGUGUACCUGCCAUAACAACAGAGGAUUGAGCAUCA; result = 0.858 ratio
Sequence = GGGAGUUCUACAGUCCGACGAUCUCUGGACAACUGUCUAUGAAGGUAUAACUAUUUCAUCUCCCACCUGGAAGACCAAAAGGUCGGCUUUAUUUGUUGAUUGUAGUGGUACCCCAAAGCUGCACUGCCGUUCUUGGAUGUUUGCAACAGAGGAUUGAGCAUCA; result = 0.296 ratio
Sequence = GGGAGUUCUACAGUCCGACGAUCUUUUAUUGAUCAGGUCUGUAAAUGUGUACUGAAAAAAUCAGAGUCUAUUUAUAAAUAGAAUAGUUUAUUUAAAGAGGUCUUUCCUCAUCCAUGUUGUGAUAUGCGUAAUUCCAUUUGUUACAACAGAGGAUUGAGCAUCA; result = 0.673 ratio

Series 5
Target: PABPC1L2, full length, GST fusion (mouse, UniProt A0ABA7IW68)
Technique: RNAcompete
Form: RNA
Matrix: in vitro
Concentration: 20 nM
Notes: 7-mer, probes averaged, single round
Relative to: mean of 7-mers
Reading: higher = stronger binding
Endpoint: 7-mer Z-score
Residues (chain): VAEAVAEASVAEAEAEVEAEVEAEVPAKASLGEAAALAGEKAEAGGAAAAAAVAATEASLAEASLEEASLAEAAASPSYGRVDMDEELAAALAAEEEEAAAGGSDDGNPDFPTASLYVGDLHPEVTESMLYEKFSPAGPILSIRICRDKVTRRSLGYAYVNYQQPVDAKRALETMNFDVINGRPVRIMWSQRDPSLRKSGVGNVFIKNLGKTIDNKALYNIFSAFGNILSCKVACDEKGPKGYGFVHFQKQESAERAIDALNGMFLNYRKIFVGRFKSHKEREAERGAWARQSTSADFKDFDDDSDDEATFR
Sequence = ACCCUGU; result = -0.246
Sequence = UGGAGUA; result = -0.0337
Sequence = AUUCAGU; result = -0.182
Sequence = UGGCCCA; result = -0.24
Sequence = GGCCGAG; result = 0.0406
Sequence = CAGGCCG; result = -0.11
Sequence = GCAGACG; result = 0.276
Sequence = AGUCAUA; result = -0.146
Sequence = UUCUGCG; result = -0.249
Sequence = UAGCCAA; result = -0.11
Sequence = GAAGUAA; result = 0.0678
Sequence = UCGGAAC; result = -0.0355
Sequence = CUGCGCA; result = -0.22
Sequence = UUAUCCU; result = -0.278
Sequence = CGAUGCC; result = -0.282
Sequence = GAGUUCU; result = -0.421
